Measured values pooled from the literature.
Each numbered part is a random draw from the data of one study; scales do not carry over between parts. Substitutions count along the parent as printed.

Block 1 — target: CCNF, cyclin fold, Cln2 fusion (human); technique: yeast growth competition, sequencing; matrix: yeast; notes: strong parent motif; relative to: not given; direction: higher = stronger binding
Starting sequence: CDKN1B docking peptide (human); PSACRNLFGPVDH
Substitution | normalised enrichment score
A3H | 4.27
N6L | 3.72
A3T | 7.45
D12R | 7.79
P1T | 7.51
R5H | 0.326
R5L | 0.561
L7S | 0.341
A3K | 1.09
H13P | 6.92
F8N | 0.317
P10R | 8.09
N6M | 6.03
G9P | 6.39
H13M | 6.92
S2N | 7.09
A3S | 3.65
D12V | 6.85
L7E | -0.155

Block 2 — technique: protein binding microarray; molecule type: double-stranded DNA, one strand shown; matrix: in vitro; concentration: not given; relative to: not given; direction: higher = stronger binding
Target: Histone acetyltransferase KAT6A, both winged helices, GST fusion (KAT6A, Homo sapiens, UniProt Q92794, residues 1-181)
Notes: 8-mer, flanks averaged, mean of 2 arrays, mostly near background
Target sequence (chain): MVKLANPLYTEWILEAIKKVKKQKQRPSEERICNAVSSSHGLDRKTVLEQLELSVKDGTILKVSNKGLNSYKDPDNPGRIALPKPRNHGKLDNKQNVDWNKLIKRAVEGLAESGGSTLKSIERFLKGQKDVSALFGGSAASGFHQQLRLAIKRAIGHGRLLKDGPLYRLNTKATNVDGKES
Strand | E-score
ATTCACCC | -0.128
GTTGGGTA | -0.167
AAAGCAAT | -0.0759
CAGAAGGG | -0.12
CGGTCTTA | 0.201
CCAGGTTA | -0.0804
CTGCCCTC | -0.162
CAGATTCG | -0.0728
AAAGGGGG | -0.25
AGCCGAAG | -0.0909
AGGTGAAG | -0.158
CGCGTAAA | 0.292
TCCTAAAA | -0.144
TCCGAACA | 0.0743
AGATCCGG | 0.025
GTCGCTCA | 0.0493
CGGTGGAC | -0.027

Block 3 — technique: universal PBM; molecule type: double-stranded DNA, one strand shown; matrix: in vitro; concentration: not given; direction: higher = stronger binding
Target: Sal-like protein 4, full length isoform B (SALL4, Homo sapiens, UniProt Q9UJQ4-2, residues 1-616)
Notes: 8-mer, flanks averaged, mean of replicates
Construct (chain): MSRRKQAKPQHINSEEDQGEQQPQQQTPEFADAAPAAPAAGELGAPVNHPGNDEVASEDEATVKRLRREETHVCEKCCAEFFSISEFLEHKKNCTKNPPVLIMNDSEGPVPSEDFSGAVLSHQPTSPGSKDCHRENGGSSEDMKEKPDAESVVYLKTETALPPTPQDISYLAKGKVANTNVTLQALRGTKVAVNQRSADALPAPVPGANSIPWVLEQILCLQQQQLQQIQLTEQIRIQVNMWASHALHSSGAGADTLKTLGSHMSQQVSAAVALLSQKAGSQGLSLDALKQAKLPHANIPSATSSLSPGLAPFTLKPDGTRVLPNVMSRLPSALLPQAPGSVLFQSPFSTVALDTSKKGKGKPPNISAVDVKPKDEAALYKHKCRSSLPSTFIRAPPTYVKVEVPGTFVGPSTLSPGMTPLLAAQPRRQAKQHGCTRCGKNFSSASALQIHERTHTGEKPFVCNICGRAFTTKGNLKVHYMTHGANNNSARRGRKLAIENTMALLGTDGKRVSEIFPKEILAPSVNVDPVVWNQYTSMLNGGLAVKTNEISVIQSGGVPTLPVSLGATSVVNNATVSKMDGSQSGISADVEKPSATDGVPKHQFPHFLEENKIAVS
Strand | E-score
CCTCACAC | -0.125
AACGGCCA | 0.0458
CCGGACCG | -0.408
ACAACGAT | 0.196
AGTTCCCC | -0.206
CAGTAGGC | -0.0754
AAGCCTCA | -0.191
ATGGAGAG | 0.0631
ACGAGCGA | 0.0194
GCCAAGCA | -0.14
AGCGATAT | 0.219
GGGAAGGA | -0.139
AGAGCCCT | -0.156
GTGGTACA | -0.00262
CGATCGTA | -0.0334
GGGCTGCA | -0.11
AGATGCAC | -0.116
CTCTGGCC | -0.155
TGAATGCA | 0.132
ACTGGCAA | 0.127
GTGGTCTA | -0.0887
AAGGCTTG | -0.0314

Block 4 — technique: DHFR PCA, deep sequencing; matrix: yeast; together with: (+)-ABA 710 µM; relative to: wild-type fitted maximum; direction: higher = stronger binding
Target: ABI1, truncated, D143A, DHFR fusion (Arabidopsis thaliana)
Notes: methotrexate growth selection, single substitutions
Starting sequence: PYL1, truncated, DHFR fusion (Arabidopsis thaliana); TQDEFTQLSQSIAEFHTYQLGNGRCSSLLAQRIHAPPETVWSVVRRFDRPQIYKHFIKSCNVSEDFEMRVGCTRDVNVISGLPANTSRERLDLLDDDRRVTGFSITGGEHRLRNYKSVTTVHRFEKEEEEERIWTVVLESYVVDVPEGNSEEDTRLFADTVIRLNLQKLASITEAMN; partner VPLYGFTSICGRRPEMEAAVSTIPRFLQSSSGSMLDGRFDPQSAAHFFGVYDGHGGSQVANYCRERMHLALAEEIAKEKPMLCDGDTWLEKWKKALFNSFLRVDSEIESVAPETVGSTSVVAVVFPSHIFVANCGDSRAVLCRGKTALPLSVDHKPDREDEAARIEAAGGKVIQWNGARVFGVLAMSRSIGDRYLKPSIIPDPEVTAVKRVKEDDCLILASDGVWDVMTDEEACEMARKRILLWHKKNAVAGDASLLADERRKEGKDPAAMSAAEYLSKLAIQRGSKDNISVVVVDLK
Substitution | relative binding score [%]
T73I | 95.2
T73F | 101
I172M | 101
V70S | 91.3
K126E | 110
Q10S | 108
E174L | 87.7
E152L | 97.2
L28Q | 97.7
N61A | 97.5
R46M | 105
R46H | 85.9
Q2Y | 102
Y53W | 102

Block 5 — technique: aptamer microarray, sandwich; molecule type: DNA with 2'F-ANA; matrix: in vitro; concentration: 200 nM; together with: Cy3 exosite-II aptamer, 400 nM; direction: higher = stronger binding; strand: GGTTGGTGTGGTTGG
Target: Prothrombin, mature alpha-thrombin (F2, Homo sapiens, UniProt P00734)
Notes: whole 15-mer aptamer, many near background
Modification | mean fluorescence intensity [a.u.]
2'F-ANA at 2 3 4 7 8 10 11 14 | 186
2'F-ANA at 1 4 7 8 9 11 14 15 | 79.9
2'F-ANA at 2 3 4 5 8 11 13 | 69.9
2'F-ANA at 4 5 7 8 13 14 15 | 47.7
2'F-ANA at 1 3 6 9 11 | 223
2'F-ANA at 1 4 8 10 11 13 15 | 52.7
2'F-ANA at 2 5 7 14 15 | 94.7
2'F-ANA at 2 6 7 9 10 12 | 150
2'F-ANA at 6 7 9 10 12 13 14 | 116
2'F-ANA at 2 5 8 9 11 13 14 | 43
2'F-ANA at 2 3 4 5 7 11 12 14 | 51.3
2'F-ANA at 2 3 6 7 9 10 12 14 15 | 248
2'F-ANA at 2 4 6 14 15 | 90.6
2'F-ANA at 2 3 6 7 11 13 14 | 323
2'F-ANA at 1 4 5 7 8 11 12 14 | 56.3
2'F-ANA at 5 7 8 9 11 12 13 14 15 | 50.2
2'F-ANA at 6 11 12 14 15 | 213
2'F-ANA at 2 4 5 7 13 14 15 | 43.9

Block 6 — technique: RNA Bind-n-Seq; molecule type: RNA; matrix: in vitro; concentration: 100 nM; relative to: input RNA pool; direction: higher = stronger binding
Target: RING finger protein unkempt homolog, zinc fingers 1-6, SBP tag (UNK, Homo sapiens, UniProt Q9C0B0, residues 30-357)
Chain of UniProt Q9C0B0 (30-357, looked up): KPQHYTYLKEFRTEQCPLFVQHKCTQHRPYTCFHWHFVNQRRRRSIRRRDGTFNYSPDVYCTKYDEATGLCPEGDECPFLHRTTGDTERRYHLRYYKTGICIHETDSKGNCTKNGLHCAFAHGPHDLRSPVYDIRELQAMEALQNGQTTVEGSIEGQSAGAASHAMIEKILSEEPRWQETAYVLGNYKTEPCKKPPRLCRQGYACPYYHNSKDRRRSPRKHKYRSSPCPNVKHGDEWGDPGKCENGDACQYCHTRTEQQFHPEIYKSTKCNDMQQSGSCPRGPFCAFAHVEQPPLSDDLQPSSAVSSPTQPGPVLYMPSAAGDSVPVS
Notes: RNA with constant flanks, vertebrate orthologous sites, ends assumed
Constant ends, left off below: GGGAGUUCUACAGUCCGACGAUC … CAACAGAGGAUUGAGCAUCA
Strand | bound/input enrichment
AGCAGCUCAAGGAUUCAGAACUGGUUUUGCAAAUGUCCCAGGCAGAUAUGGAACAAAUGCUCGUGGUCAGCCCCGACCAUAAUAAACACCAUUAUUUAUUAUACUUAAGGGUAUUGACUU | 0.344 ratio
UGUGAGCGUCUACAGACGGCUCACCAUUUUUGUCCUGUAUCUGUAAACACUUUUUGUUCUUAGUCUUUUUCUUGUAAAAUUGAUGUUCUUUAAAAUCGUUAAUGUAUAACAGGGCUUAUG | 0.306 ratio
CCUUCUGUAGAGAACAAUUUUCACUAAAGCCAUUGACAAAUUCCCCCCACCAGACUUUUCUUUGGAGCUCUUUCAUUUCGUACAAUCUUGCUGUGUUGGUCAUUGUUAGCCCUGAAUCCA | 0.914 ratio
GGGACGUUUUGAUGUAAAAAUUGAAGUUAAGAGCUGAUCACAAGCACAAAUCUUUCCCACUAGCCAUUUAAUAAGUUAAAAAAAGAUACAAAAACAAAAACCUACUAGUCUUGAACAAAC | 2.99 ratio
CACAUCUGGUGAUAUUUGGCCAGGCCUUUCGGCUUAUGAUAAUAGUCCCAGAUCACCCCAUAGUCCUUCACCUAUUGCUACACCCCCUAGUCAGAGUUCAUCUUGCUCUGAUGCUCCCAU | 0.702 ratio
AGGGCGGCCCCGGGGCCUUGGGCACUGCUGGCCCCCGAGGCUGUUGUUGGCAACCUGACAAAAUAGAUAGGCUUGUGGUUGUUGUUGUUUUGUUUUUUUUUUUUAAUUUAAAGAUAUUAA | 0.973 ratio
AAAUUUAUUUCAUGCCCUGGACCCCCUAUCGUACUGAUACUUUAAUAGAAUAUGCUUCUUUAGAAGAUUUCCAAAACAGUCGCCAAACAACAACGUAUAAACUUCCAAAUCGAGUAGAUG | 1.29 ratio
GCACUGCUUGUUCCAGUUUCACAACACUGAAUGCAAAGUAGCAAAUUUCAUAGUCACAGUAAGGUAGCUUUAGGGUAAAGAGUUUGAAAAAAUGUAUCAUAUGUAUAAUUGUUUUCCUUU | 1.21 ratio
UGUCUGCCUCAUGCUAAAAUUUACACAGUAGACCAUUUGUCAUCCAUGCUGUCCCACAAAUAGUUUUUUUGUUUACGAUUUAUGACAGGUUUAUGUUACUUCUAUUUGAAUUUCUAUAUU | 1.92 ratio
GCACAUGCCACUGUCACCAAAAACAAACUACCACUUUCCAAAUUUCAUUCAGAGCCAUUUUAGUGUUUUCCUAUUCCCUACCCCUGCCACUACUUUCAAUGAUGAAAUACCCUAAGUAAG | 4.69 ratio
UGGGUUACUCCUAUUAUUAUCAAGUAGCUGGAAUUGUGAAGGUCGGAGUAGUUAGAUCUUAGCUUUUAUUCCUUAUUUUUUUGUAUUACUCUUCAUGUGUAUAAAUUAUUGAUCAUGUUG | 3.9 ratio

Excerpt of the above (block 6):
Strand | bound/input enrichment
UGUCUGCCUCAUGCUAAAAUUUACACAGUAGACCAUUUGUCAUCCAUGCUGUCCCACAAAUAGUUUUUUUGUUUACGAUUUAUGACAGGUUUAUGUUACUUCUAUUUGAAUUUCUAUAUU | 1.92 ratio
UGGGUUACUCCUAUUAUUAUCAAGUAGCUGGAAUUGUGAAGGUCGGAGUAGUUAGAUCUUAGCUUUUAUUCCUUAUUUUUUUGUAUUACUCUUCAUGUGUAUAAAUUAUUGAUCAUGUUG | 3.9 ratio
UGUGAGCGUCUACAGACGGCUCACCAUUUUUGUCCUGUAUCUGUAAACACUUUUUGUUCUUAGUCUUUUUCUUGUAAAAUUGAUGUUCUUUAAAAUCGUUAAUGUAUAACAGGGCUUAUG | 0.306 ratio
CCUUCUGUAGAGAACAAUUUUCACUAAAGCCAUUGACAAAUUCCCCCCACCAGACUUUUCUUUGGAGCUCUUUCAUUUCGUACAAUCUUGCUGUGUUGGUCAUUGUUAGCCCUGAAUCCA | 0.914 ratio
GGGACGUUUUGAUGUAAAAAUUGAAGUUAAGAGCUGAUCACAAGCACAAAUCUUUCCCACUAGCCAUUUAAUAAGUUAAAAAAAGAUACAAAAACAAAAACCUACUAGUCUUGAACAAAC | 2.99 ratio
AGCAGCUCAAGGAUUCAGAACUGGUUUUGCAAAUGUCCCAGGCAGAUAUGGAACAAAUGCUCGUGGUCAGCCCCGACCAUAAUAAACACCAUUAUUUAUUAUACUUAAGGGUAUUGACUU | 0.344 ratio
AGGGCGGCCCCGGGGCCUUGGGCACUGCUGGCCCCCGAGGCUGUUGUUGGCAACCUGACAAAAUAGAUAGGCUUGUGGUUGUUGUUGUUUUGUUUUUUUUUUUUAAUUUAAAGAUAUUAA | 0.973 ratio
GCACUGCUUGUUCCAGUUUCACAACACUGAAUGCAAAGUAGCAAAUUUCAUAGUCACAGUAAGGUAGCUUUAGGGUAAAGAGUUUGAAAAAAUGUAUCAUAUGUAUAAUUGUUUUCCUUU | 1.21 ratio
CACAUCUGGUGAUAUUUGGCCAGGCCUUUCGGCUUAUGAUAAUAGUCCCAGAUCACCCCAUAGUCCUUCACCUAUUGCUACACCCCCUAGUCAGAGUUCAUCUUGCUCUGAUGCUCCCAU | 0.702 ratio
AAAUUUAUUUCAUGCCCUGGACCCCCUAUCGUACUGAUACUUUAAUAGAAUAUGCUUCUUUAGAAGAUUUCCAAAACAGUCGCCAAACAACAACGUAUAAACUUCCAAAUCGAGUAGAUG | 1.29 ratio
GCACAUGCCACUGUCACCAAAAACAAACUACCACUUUCCAAAUUUCAUUCAGAGCCAUUUUAGUGUUUUCCUAUUCCCUACCCCUGCCACUACUUUCAAUGAUGAAAUACCCUAAGUAAG | 4.69 ratio
